Published values pooled from the literature.
Protocols differ between the studies behind these lines. ± gives the spread as reported.
Sequence of UniProt P49760 (whole entry, looked up): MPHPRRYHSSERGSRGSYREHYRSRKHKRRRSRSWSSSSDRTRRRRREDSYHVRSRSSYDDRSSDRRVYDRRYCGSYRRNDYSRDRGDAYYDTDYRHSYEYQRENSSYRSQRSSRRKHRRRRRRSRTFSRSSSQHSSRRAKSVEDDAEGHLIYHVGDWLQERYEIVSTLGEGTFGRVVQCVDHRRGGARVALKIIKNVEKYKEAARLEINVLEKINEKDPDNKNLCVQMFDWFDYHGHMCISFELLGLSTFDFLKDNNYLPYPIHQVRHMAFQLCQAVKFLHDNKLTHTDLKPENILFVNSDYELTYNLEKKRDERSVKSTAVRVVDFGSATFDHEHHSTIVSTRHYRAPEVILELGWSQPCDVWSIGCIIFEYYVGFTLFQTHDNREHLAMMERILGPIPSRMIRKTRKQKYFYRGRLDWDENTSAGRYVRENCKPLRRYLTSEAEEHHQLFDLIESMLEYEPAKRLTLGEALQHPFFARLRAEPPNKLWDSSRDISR

SMILES	tested on	test	test system	setting	how to read	endpoint	value
COc1ccc([C@@H](O)c2cc(-c3ncnc4cc(N5CCOCC5)ccc34)c(F)cc2Cl)nn1			patients, advanced solid tumours	oral, 250 mg twice daily, treatment-emergent, together with: avelumab	reference: patients	vascular disorders incidence	2%
CC(C)[C@H](C(=O)O[C@H](C#N)c1cccc(Oc2ccccc2)c1)c1ccc(Cl)cc1		item: CYP2C8	human, age 6 months			enzyme contribution to clearance	0.98%
CCN1[C@@H](C(=O)NC23CCC(C(=O)O)(CC2)CC3)[C@H](c2cccc(Cl)c2F)[C@]2(C(=O)Nc3cc(Cl)ccc32)C12CCCCC2			patients with advanced solid tumours	oral, 150 mg		Dizziness incidence	12.5%
C[C@H]1CN(c2n[nH]c3nc(N[C@H]4CC[C@H](NS(=O)(=O)CCC(F)(F)F)CC4)ncc23)CCO1	CLK2 (Homo sapiens, UniProt P49760)	inhibitor, Kinobeads competition profiling		0.032 µM	reference: vehicle	relative abundance	0.95
CN1CC[C@@H](c2c(O)cc(O)c3c(=O)cc(-c4ccc(C(F)(F)F)cc4Cl)oc23)[C@@H]1CO		item: Nausea	B-cell malignancies	oral, 150 mg, intermittent dosing		patients with adverse event	0%
Cn1ncc(-c2nc(N[C@H]3CC[C@H](N)CC3)ncc2Cl)c1CC1CC1		HPLC-MS/MS	patients, plasma	oral, 8 mg, day 1		Cmax	18 ng/mL
CN1CCN(S(=O)(=O)c2cc([N+](=O)[O-])ccc2N(CCOS(C)(=O)=O)CCOS(C)(=O)=O)CC1			naive NOD/SCID mice, pooled blood	intraperitoneal, 12.5 mg/kg, week 4		alkaline phosphatase	70 U/L
O=c1ccc2ncc(=O)n3c2n1C[C@H]3CN1CCC(NCc2cc3c(cn2)OCCC3)CC1			healthy human participants, urine	oral, 1500 mg, arithmetic mean, compound alone		amount excreted in urine (Ae)	317 mg
COc1ccc(-c2c(-c3ccc(C#N)c(F)c3)nc(N3CCC(N)CC3)n(C)c2=O)cc1F		item: conjunctival hemorrhage	relapsed/refractory MZL patients	oral, 60 mg, dose expansion		grade 3-4 TRAE incidence	0%
CC(C)n1c(C2CCNCC2)nc2c([N+](=O)[O-])c(Br)c(Br)cc21		item: Sepsis	AML patients	125 mg		adverse events causing discontinuation	4%
O=C(Nc1ccccc1)C1CCN(C(=O)Oc2cccnc2)CC1		Bond-Lader VAS	healthy women	100 mg	reference: pre-dose baseline, direction not given	change in well-coordinated–clumsy score	-18
Cc1ncc(C)n2nc(/C=C/c3nc(N4CCCC4)cc(N4CCOCC4)n3)nc12			F344 rat male, striatum	oral, 0.3 mg/kg, 60 min		tissue concentration	317 ± 51 ng/g
O[C@H]1CCCN[C@@H]1CCCn1cnc2c(Cl)c(Cl)ccc21			healthy CYP2D6 EM and UM, plasma	oral, 150 mg multiple doses		Cmax at steady state	229 ng/mL
CC(=O)c1c(C)c2cnc(Nc3ccc(C4CCN(CCS(C)(=O)=O)CC4)cn3)nc2n(C2CCCC2)c1=O			human patients, plasma	oral, 100 mg twice daily, day 21 multiple doses, together with: fulvestrant		AUC(0-inf)	1550 ng·h/mL
CC1(CC(F)(F)F)NC(=O)N(c2ccc(F)c(C(F)(F)F)c2)C1=O (stereo not drawn)			Schistosoma mansoni-infected NMRI mice	oral, 100 mg/kg, single dose		toxicity	toxic
Brc1ccc(Oc2cc(Br)c(Br)cc2Br)c(Br)c1			cow whole milk	20 nM	reference: milk fat over skim milk	milk fat partition ratio	198
C[C@@H](NC(=O)N1C(=O)[C@H](Cc2ccnc(N)c2)[C@H]1C(=O)O)C1CCCCC1			healthy adult Chinese volunteers	continuous intravenous infusion, 1.0 mg/kg/h, 5-day infusion, CTCAE 5.0 grading		drug-related decreased neutrophil	0%
COc1ccc(C[C@@H]2NC(=O)[C@H]([C@@H](C)O)NC(=O)[C@@H]3[C@@H]4CCN3C(=O)[C@@H]3Cc5cn(c6ccc(F)cc56)CCCCCCN(Cc5ccc(cc5)CCNC(=O)[C@]5(C)CCCN5C2=O)C(=O)CCC(=O)N[C@@H](C)C(=O)N[C@H](CNC(=O)CCCCC[N+](C)(C)C)C(=O)N[C@@H](Cc2cccc(c2)CNC(=O)CO4)C(=O)N3)cc1		item: Wound	humans	concentration not given, Study-001		participants with adverse event	2%
C=CCNc1c(O)cc2c(O)c1C[C@@H](C)C[C@H](OC)[C@H](O)[C@@H](C)/C=C(\C)[C@H](OC(N)=O)[C@@H](OC)/C=C\C=C(/C)C(=O)N2			unresectable or metastatic STS, GIST, other	intravenous, 500 mg/m^2		patients with sinus bradycardia	43%
CC(C)c1nc(N(C)S(C)(=O)=O)nc(-c2ccc(F)cc2)c1/C=C/[C@@H](O)C[C@@H](O)CC(=O)O			healthy human subjects	oral, dose not given, study CL-0537 safety set		incidence of Nasopharyngitis	0%
C[C@@H]1NC(=O)[C@H](CCCCNC(=O)CO/N=C/C(=O)NCCCC[C@@H]2NC(=O)[C@@H](Cc3ccccc3)NC(=O)[C@H](CC(=O)O)NC(=O)CNC(=O)[C@H](CCCNC(=N)N)NC2=O)NC(=O)CNC(=O)[C@@H]2CCCN2C(=O)[C@H](CCCCNC(=O)CO/N=C/C(=O)NCCCC[C@@H]2NC(=O)[C@@H](Cc3ccccc3)NC(=O)[C@H](CC(=O)O)NC(=O)CNC(=O)[C@H](CCCNC(=N)N)NC2=O)NC(=O)[C@H](CCCCNC(=O)[C@H](CCCCN)NC(=O)[C@H](Cc2ccccc2)NC(=O)CNC(=O)CN2CCCNCCNCCCNCC2)NC(=O)[C@H](CCCCNC(=O)CO/N=C/C(=O)NCCCC[C@@H]2NC(=O)[C@@H](Cc3ccccc3)NC(=O)[C@H](CC(=O)O)NC(=O)CNC(=O)[C@H](CCCNC(=N)N)NC2=O)NC(=O)CNC(=O)[C@@H]2CCCN2C(=O)[C@H](CCCCNC(=O)CO/N=C/C(=O)NCCCC[C@@H]2NC(=O)[C@@H](Cc3ccccc3)NC(=O)[C@H](CC(=O)O)NC(=O)CNC(=O)[C@H](CCCNC(=N)N)NC2=O)NC1=O [copper-64 labelled]			normal mice, muscle	intravenous, 0.74 MBq, 24 h post-injection		tissue uptake	0.2 ± 0.04 %ID/g
Cc1cc(C)c(CNC(=O)c2cc(Cl)c3c(c2C)O[C@@](C)([C@H]2CC[C@H](N(C)C)CC2)O3)c(=O)[nH]1			relapsed/refractory NHL patients	dose not given, all TEAEs, safety set		grade 5 AST increased incidence	0%
Nc1nc2cc(-c3ccc4ncc(C(=O)N5CCOCC5)n4c3)ccc2o1			advanced solid tumour patients	21 days, once-daily dosing, range over		tolerable dose range	100 to 150 mg
CC(C)CC(=O)OC[C@H]1O[C@@](C#N)(c2ccc3c(N)ncnn23)[C@H](O)[C@@H]1O			Rats plasma	5 µM, 15 min		remaining compound	0.04 ± 0.006%
O=C(O)CCCOc1ccc(F)cc1-c1cc(-c2ccccc2C(F)(F)F)n(-c2ccccc2)n1			Crl:CD(SD) rat, male	intravenous, 25 µg/kg, 14 days post-dose	reference: body weight	relative pituitary weight	4 ± 0.3 mg%
COC[C@@]12CC[C@H](OC)[C@]34C(C([C@H](OC)[C@H]13)[C@]1(OC(C)=O)[C@H]3[C@@H](OC(=O)c5ccccc5)[C@](O)(C[C@H]34)[C@@H](OC)[C@@H]1O)N(C)C2			Sprague-Dawley rat, plasma	oral, dose not given, with H in PCW extract		MRT(0-t)	5.34 ± 0.784 h
O=c1cc(-c2ccc(O)c(O)c2)oc2cc(O)cc(O)c12			male Sprague-Dawley rat, lean	oral, 100 mg/kg of neohesperidin, 24 to 36 h, after β-glucuronidase/sulfatase hydrolysis		urinary excreted amount, total	109 ± 35.5 ng
N#C[C@@H]1CC(F)(F)CN1C(=O)CNC(=O)c1ccnc2ccc(OCCCN3CCN(C(=O)CN4CCN(CC(=O)[O-])CCN(CC(=O)[O-])CC4)CC3)cc12.[18F-].[Al+3]			healthy rat, bladder	iv, 2 h		tissue uptake	0.75 ± 0.25 %ID/g
C[C@]1(O)C[C@@](N)(c2ccc(-c3nc4n(c3-c3ccccc3)COc3ccncc3-4)cc2)C1			human, advanced or metastatic solid tumours	20 mg once daily, phase I dose escalation		patients with Dyspnea TEAE	16.7%
C[C@]1(CO)Cc2ncn(-c3ccc(C#N)c(Cl)c3)c2C(=O)O1			human, Chinese, plasma	80 mg single dose, geometric mean		AUC(0-inf)	23.7 µM·h

Excerpt of the above:
SMILES	tested on	test	test system	setting	how to read	endpoint	value
Cc1ncc(C)n2nc(/C=C/c3nc(N4CCCC4)cc(N4CCOCC4)n3)nc12			F344 rat male, striatum	oral, 0.3 mg/kg, 60 min		tissue concentration	317 ± 51 ng/g
CN1CC[C@@H](c2c(O)cc(O)c3c(=O)cc(-c4ccc(C(F)(F)F)cc4Cl)oc23)[C@@H]1CO		item: Nausea	B-cell malignancies	oral, 150 mg, intermittent dosing		patients with adverse event	0%
COc1ccc([C@@H](O)c2cc(-c3ncnc4cc(N5CCOCC5)ccc34)c(F)cc2Cl)nn1			patients, advanced solid tumours	oral, 250 mg twice daily, treatment-emergent, together with: avelumab	reference: patients	vascular disorders incidence	2%
Cc1cc(C)c(CNC(=O)c2cc(Cl)c3c(c2C)O[C@@](C)([C@H]2CC[C@H](N(C)C)CC2)O3)c(=O)[nH]1			relapsed/refractory NHL patients	dose not given, all TEAEs, safety set		grade 5 AST increased incidence	0%
